Measured values from different studies.
A part holds a random share of what one study measured. Changes are numbered by the printed parent chain.

Set 1
Target: Hepatocyte nuclear factor 3-alpha (Foxa1, Mus musculus, UniProt P35582, residues 1-468, full length assumed)
UniProt P35582, sequence (whole entry, looked up): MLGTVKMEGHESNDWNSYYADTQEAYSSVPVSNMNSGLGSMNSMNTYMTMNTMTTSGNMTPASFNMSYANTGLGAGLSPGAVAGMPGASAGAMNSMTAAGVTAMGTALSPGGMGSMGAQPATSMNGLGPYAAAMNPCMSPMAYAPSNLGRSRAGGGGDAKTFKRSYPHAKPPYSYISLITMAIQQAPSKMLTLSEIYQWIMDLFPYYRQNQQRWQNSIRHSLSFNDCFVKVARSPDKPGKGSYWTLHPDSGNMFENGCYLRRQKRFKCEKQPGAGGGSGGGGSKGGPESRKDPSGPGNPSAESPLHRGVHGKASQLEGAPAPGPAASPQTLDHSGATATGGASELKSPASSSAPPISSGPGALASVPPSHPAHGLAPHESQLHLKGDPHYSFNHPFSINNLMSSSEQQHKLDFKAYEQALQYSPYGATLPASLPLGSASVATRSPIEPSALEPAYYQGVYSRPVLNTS
Method: EMSA with sequencing
Molecule type: double-stranded DNA, one strand shown
Sample: in vitro
Tested at: 10 and 20 nM
Setting: whole designed probe, mean of two concentrations, ends assumed
Baseline: negative control set to 0
Direction: higher = stronger binding
All sequences stand within: GTGAGCGGTGCCCATTGATGGGGAAC … TTTCACTGGGATCGTGGGGAC
Oligonucleotide	normalised bound fraction [ratio]
TATTGGCATAAGGTTTATAATAGGATCTTGATGAACAGAAATACTGTACACTATTCTTAATTGTAATGTTCATGTCAACGGAGTGCATTAAGAGTAAATATTAGCTAGAAACATGGTAACTTGTTCCTCTACATGAAACACAAACAGGACAGAGATGGAAATCACTGGTCATAGCAAAAGGACCAAACTTTAG	0.281
GTGAATGTTGGATTCATGGATTGGGTATGACTACTCTGGGTCTGCCACCCCCAGAAAGTTTAGCACAAGTCACAGAGCAGCGTCAGGAAGCCCTTGTTTACATTTCACACACCCTTTAGGCCCTTCTCCCAGCCAGCCTGATACCAGATTCACAGAGTTCACAAACTGTGAACTCTCTCTACCTAGTTGCTGT	0.421
AAAGGCTAGAGGACATATAATAGAGGCACATGTAAAAATTATAGATAATAGTGTCAACTTTCATAACTTAAAGTGAAAAATTTCTTTTACTATGTTTACTTTGCAGACAGAAAAATAACATTAGTAAGGAATAATTGCTATTTCTTTTTGGTTATTTTTCTCTCATTCATATTAACTTTTCCTAAATTTCAAA	0.428
TCCTCCCCCTCCTACCAGGCAGGGCTGAGCCAGACTGGGGTTCCAAAGCCCTTCCTCCTTCTCGATCCAGAGATAAATATTTGTTTCTCCAGTGTAATTTGCCCTTCGTGTTTAATGAGGCAATCCTAGGGCCATTTCCTGGCACGGCTCAGGGCCTGGAGGTCTTTCTCGCTCTGGGAGGAACAGTCCTAGG	0.051
CATATTTTCTTCTAATCAGCTAACTATATACACATATTTTGAAAATTACAAGGCCTGAAAAAACATCAAGCTATAAATGTTATTGTTATTCATGTTTACATTATACCTTATATTTTTAGAACTTCTAAGTTTCTTCACAATTTTTTTTTCTTCTGGGTGAGATATGTGTTATTATCGTAATTTTCACATGAAT	0.367

Set 2
Target: Interferon regulatory factor 5, full length, phosphomimetic (IRF5, Homo sapiens, UniProt Q13568-2, residues 1-514, K96S/S451D/S453D/S456D/S462D)
Method: protein-binding microarray
Molecule type: double-stranded DNA, one strand shown
Sample: in vitro
Tested at: 250 nM
Setting: 60-bp whole probe
Together with: salmon DNA 0.4 mg/ml
Baseline: random background probes
Direction: higher = stronger binding
All sequences stand within: GCCTAGCAC … GTCTTGATTCGCTTGACGCTGCTG
Oligonucleotide	log fluorescence [z-score]
AATTAGGTTTCACTTTCCAAAGTGCTA	6.99
GACGAACTGGTGTATCGAGACGTGCTA	0.342
TTAGCTTTCCTTTCCCTTTAGTGCTAG	2.33
TATGTTCACTATTTAAGACCGTGCTAG	0.345
TCACTTTCCTTTATGTCACTGTGCTAG	2.6
GACGGTCTCTTACTGCTGACGTGCTAG	-0.158
TTAGGTATCCTTCTCCGTTAGTGCTAG	0.252
GACGGTATCGGGTATCGGGAAGTGCTA	4
TTAGGTTTCGACTTTCGGTCAGTGCTA	10.5

Set 3
Target: CCNE2, cyclin fold, Cln2 fusion (human)
Method: yeast growth competition, sequencing
Sample: yeast
Setting: strong parent motif
Baseline: not given
Direction: higher = stronger binding
Starting sequence: SCAPER docking peptide (human); SNARRSLNFGGST; partner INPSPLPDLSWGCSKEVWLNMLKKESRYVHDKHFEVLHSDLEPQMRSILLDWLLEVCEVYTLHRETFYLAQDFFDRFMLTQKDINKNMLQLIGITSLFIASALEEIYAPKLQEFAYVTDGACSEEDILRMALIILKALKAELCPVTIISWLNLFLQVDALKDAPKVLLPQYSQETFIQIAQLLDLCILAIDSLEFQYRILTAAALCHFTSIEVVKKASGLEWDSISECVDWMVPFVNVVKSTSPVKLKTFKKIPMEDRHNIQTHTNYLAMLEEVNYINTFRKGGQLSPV
Substitution	normalised enrichment score
SNRRRSLNFGGST [A3R]	0.445
SNARRSLGFGGST [N8G]	0.841
SNARRSLNFGCST [G11C]	1.18
SNARRSLNQGGST [F9Q]	-0.0415
SNARRSLNFYGST [G10Y]	1.16
SNARMSLNFGGST [R5M]	0.757
SNARRSLNFGSST [G11S]	0.818

Mixed results
Molecule	target	test	test system	setting	how to read	quantity	value
PhoQ, residues 284 288 289 292 302 303 AEGLLW	PhoP, residues 12 14 15 18 19 NHFRA (Escherichia coli, UniProt P23836)	Sort-seq, refers to: YFP reporter	E. coli	PhoQ-PhoP variant library, together with: 10 µM Mg2+	baseline: high Mg2+ state, higher = stronger signaling	fold induction	1.06

A few entries again (set 1):
Oligonucleotide	normalised bound fraction [ratio]
GTGAATGTTGGATTCATGGATTGGGTATGACTACTCTGGGTCTGCCACCCCCAGAAAGTTTAGCACAAGTCACAGAGCAGCGTCAGGAAGCCCTTGTTTACATTTCACACACCCTTTAGGCCCTTCTCCCAGCCAGCCTGATACCAGATTCACAGAGTTCACAAACTGTGAACTCTCTCTACCTAGTTGCTGT	0.421
AAAGGCTAGAGGACATATAATAGAGGCACATGTAAAAATTATAGATAATAGTGTCAACTTTCATAACTTAAAGTGAAAAATTTCTTTTACTATGTTTACTTTGCAGACAGAAAAATAACATTAGTAAGGAATAATTGCTATTTCTTTTTGGTTATTTTTCTCTCATTCATATTAACTTTTCCTAAATTTCAAA	0.428
TCCTCCCCCTCCTACCAGGCAGGGCTGAGCCAGACTGGGGTTCCAAAGCCCTTCCTCCTTCTCGATCCAGAGATAAATATTTGTTTCTCCAGTGTAATTTGCCCTTCGTGTTTAATGAGGCAATCCTAGGGCCATTTCCTGGCACGGCTCAGGGCCTGGAGGTCTTTCTCGCTCTGGGAGGAACAGTCCTAGG	0.051
CATATTTTCTTCTAATCAGCTAACTATATACACATATTTTGAAAATTACAAGGCCTGAAAAAACATCAAGCTATAAATGTTATTGTTATTCATGTTTACATTATACCTTATATTTTTAGAACTTCTAAGTTTCTTCACAATTTTTTTTTCTTCTGGGTGAGATATGTGTTATTATCGTAATTTTCACATGAAT	0.367
